Measurements gathered from unrelated publications.
Cell line: PC-3

| SMILES | assay | conditions | IC50 |
| --- | --- | --- | --- |
| N=C(N)Nc1nc2ccccc2[nH]1 | cell growth or viability, MTT | 24 h | 121 µM |
| O=C(O)c1ccc([P+]([Au-][Cl])(c2ccccc2)c2ccccc2)cc1 | cell viability, XTT | 24 h | > 200 µM |
| CC(=O)O[C@@H]1CC[C@@]2(C)[C@@H](CC[C@]3(C)[C@@H]2C(=O)C=C2[C@@H]4[C@@H](C)[C@H](C)CC[C@]4(C)CC[C@]23C)[C@@]1(C)C(=O)NCCNC(=O)C1CCCCC1 | cell growth or viability, MTT | 48 h | 14.3 µM |
| C=CC(OC(C)=O)c1ccccc1 (stereo not drawn) | MTT | 24 h | > 50 µM |
| CCCC(CCC)C(=O)[O][Pt]([Cl])([Cl])[O]C(C)=O.N.N | cell growth or viability | – | 7.32 µM |
| CSc1ccc(-c2noc(-c3cccs3)c2C(F)(F)F)cc1 | cell growth or viability, MTT | 48 h | 26.1 µM |
| [CH3][Pd-2]([Cl])([N+](=Cc1ccc[nH]1)Cc1ccccc1)[N+](=Cc1ccc[nH]1)Cc1ccccc1 | cell growth or viability, MTT | 24 h | 25.1 µg/mL |
| CC(=O)O[C@@H]1CC[C@@]2(C)[C@@H](CC[C@]3(C)[C@@H]2C(=O)C=C2[C@@H]4[C@@H](C)[C@H](C)CC[C@]4(C)CC[C@]23C)[C@@]1(C)C(=O)NCCNC(=O)CC[P+](c1ccccc1)(c1ccccc1)c1ccccc1 | cell growth or viability, MTT | 48 h | 22.2 µM |
| COC(=O)CNC(=O)CNC(=O)CNC(=O)COc1ccc2c(C)cc(=O)oc2c1 | cell growth or viability, MTT | – | 115 µM |
| CC(=O)O[C@@H]1CC[C@@]2(C)[C@@H](CC[C@]3(C)[C@@H]2C(=O)C=C2[C@@H]4[C@@H](C)[C@H](C)CC[C@]4(C)CC[C@]23C)[C@@]1(C)C(=O)NCCNC(=O)CCCCCCC[P+](c1ccccc1)(c1ccccc1)c1ccccc1 | cell growth or viability, MTT | 48 h | 17.9 µM |
| CC(C)=CCC1=C([O-])C(=O)c2ccccc2C1=O.O=[N+]([O-])[O-].[Cu+2].c1ccc(-c2cccc(-c3ccccn3)n2)nc1 | cell viability, MTT | 24 h | > 50 µM |
| C[C@]12CC/C(=N\O)C=C1CCC1C2CC[C@]2(C)/C(=C/c3ccccn3)CCC12 (stereo partly drawn) | cell growth or viability, MTT | 72 h | > 100 µM |
| C[C@H]1[C@H](C)CC[C@]2(C)CC[C@]3(C)C(=CC(=O)[C@@H]4[C@@]5(C)CC[C@@H](O)[C@](C)(C(=O)NCCNC(=O)C6CC6)[C@@H]5CC[C@]43C)[C@H]12 | cell growth or viability, MTT | 48 h | 23.6 µM |
| C[C@]1([N+](=O)[O-])C(=O)c2ccccc2O[C@@H]1CC(=O)OC1CCCCC1 | cell growth or viability, SRB | 96 h | 32.9 µM |
| CN1CCC2(CC1)C/C(=N\NC(=O)Nc1ccc(Cl)cc1)c1ccccc1O2 | cell growth or viability, MTT | 48 h | 2.56 µM |
| Cc1cc(=O)oc2cc(OCC(=O)NCC(=O)NCC(=O)NN)ccc12 | cell growth or viability, MTT | – | 63.7 µM |
| C=CCc1ccc(OCc2nnc(SCC(=O)Nc3ccccc3C(=O)OC)o2)c(OC)c1 | cell growth or viability, MTT | 72 h | 7.07 µM |
| CC(=O)O[C@@H]1CC[C@@]2(C)[C@@H](CC[C@]3(C)[C@@H]2C(=O)C=C2[C@@H]4[C@@H](C)[C@H](C)CC[C@]4(C)CC[C@]23C)[C@@]1(C)C(=O)NCCNC(=O)CCCCBr | cell growth or viability, MTT | 48 h | 10.5 µM |
| CN1CCC2(CC1)C/C(=N\NC(=O)Nc1ccccc1)c1ccccc1O2 | cell growth or viability, MTT | 48 h | 12.3 µM |
| C=CCc1cc(OC)c(OC(C)=O)c(OC)c1 | MTT | 24 h | > 50 µM |
| N=C(N)NCCC[C@@H]1NC(=O)[C@H](CCCCN)NC(=O)[C@@H](Cc2ccc(O)cc2)NC(=O)[C@H](CC(=O)O)NC(=O)CNC1=O | cytotoxicity, MTT | 48 h | > 100 µM |
| CC(=O)[O][Pt]([Cl])([Cl])[O]C(C)=O.N.N | cell growth or viability | – | 10.1 µM |
| CCCCn1cc(C(=O)O)c(=O)c2cc(F)c(Nc3ccc(OC)cc3OC)c(N)c21 | cell growth or viability, SRB | 72 h | > 200 µg/mL |

| SMILES | assay | conditions | IC50 |
| --- | --- | --- | --- |
| CC(=O)O[C@@H]1CC[C@@]2(C)[C@@H](CC[C@]3(C)[C@@H]2C(=O)C=C2[C@@H]4[C@@H](C)[C@H](C)CC[C@]4(C)CC[C@]23C)[C@@]1(C)C(=O)NCCNC(=O)OC(C)(C)C | cell growth or viability, MTT | 48 h | > 30 µM |
| C=C1CC(OC(=O)C(C)(O)CCl)C2C(=C)C(=O)OC2C2C1CC(O)C2(O)CCl (stereo not drawn) | cell growth or viability | – | 0.2 µg/mL |
| CCN1CCC2(CC1)C/C(=N\NC(=O)Nc1ccc(C)cc1)c1ccccc1O2 | cell growth or viability, MTT | 48 h | 5.47 µM |
| Fc1ccc(-c2noc(-c3cccs3)c2C(F)(F)F)cc1 | cell growth or viability, MTT | 48 h | 15.4 µM |
| CCN1CCC2(CC1)C/C(=N\NC(=O)Nc1ccc([N+](=O)[O-])cc1)c1ccccc1O2 | cell growth or viability, MTT | 48 h | 11.3 µM |
| O=C(Cc1ccccc1)NC(=S)Nc1nccs1 | cell growth or viability, MTT | 48 h | 44.5 µM |
| CN(C)CCCO/N=C1/C=C2CCC3C(CC[C@]4(C)/C(=C/c5ccccn5)CCC34)[C@@]2(C)CC1 (stereo partly drawn) | cell growth or viability, MTT | 72 h | > 100 µM |
| CCCCCC(=O)NCCNC(=O)[C@@]1(C)[C@H](O)CC[C@@]2(C)[C@H]1CC[C@]1(C)[C@@H]2C(=O)C=C2[C@@H]3[C@@H](C)[C@H](C)CC[C@]3(C)CC[C@]21C | cell growth or viability, MTT | 48 h | 28.2 µM |
| CCCC(CCC)C(=O)[O][Pt]([Cl])([Cl])[O]C(=O)C(CCC)CCC.N.N | cell growth or viability | – | 2.13 µM |
| O=C1c2ccc3c4ccc5c6c(ccc(c7ccc(c2c37)C(=O)N1CCN1CCCCC1)c64)C(=O)N(CCN1CCCCC1)C5=O | cell growth or viability, SRB | 72 h | 84.6 µM |
| CCOC(=O)C[C@H]1Oc2ccccc2C(=O)[C@]1(C)[N+](=O)[O-] | cell growth or viability, SRB | 96 h | > 50 µM |
| O=C1NN=C(c2ccccc2)/C1=N/Nc1ccc(F)cc1 | cell growth or viability, MTT | – | 96.8 µM |
| C[C@]1([N+](=O)[O-])C(=O)c2ccccc2O[C@@H]1CC(=O)OC12CC3CC(CC(C3)C1)C2 | cell growth or viability, SRB | 96 h | 10.6 µM |
| C=CCc1ccc(OCc2nnc(SCC(=O)Nc3ccc(Br)cc3)o2)c(OC)c1 | cell growth or viability, MTT | 72 h | 16.7 µM |
| O=C1c2ccc(O)cc2OC1(O)Cc1ccc(O)c(O)c1 (stereo not drawn) | cell growth or viability, MTT | 72 h | > 400 µM |
| C[C@]12CC/C(=N\OCCN3CCCC3)C=C1CCC1C2CC[C@]2(C)/C(=C/c3ccccn3)CCC12 (stereo partly drawn) | cell growth or viability, MTT | 72 h | 77.1 µM |
| C=CCc1ccc(OCc2nnc(SCC(=O)Nc3ccc(F)cc3F)o2)c(OC)c1 | cell growth or viability, MTT | 72 h | 2.09 µM |
| C=CC(OC(C)=O)c1ccc(OC)cc1 (stereo not drawn) | MTT | 24 h | > 50 µM |
| O=C([O][Ti+2][O]C(=O)c1ccc([P+]([Au-][Cl])(c2ccccc2)c2ccccc2)cc1)c1ccc([P+]([Au-][Cl])(c2ccccc2)c2ccccc2)cc1.c1cc[cH-]c1.c1cc[cH-]c1 | cell viability, XTT | 72 h | 37.7 µM |
| CC(=O)O[C@@H]1CC[C@@]2(C)[C@@H](CC[C@]3(C)[C@@H]2C(=O)C=C2[C@@H]4[C@@H](C)[C@H](C)CC[C@]4(C)CC[C@]23C)[C@@]1(C)C(=O)NCCNC(=O)c1ccccc1 | cell growth or viability, MTT | 48 h | 13.7 µM |
| C[C@]1([N+](=O)[O-])C(=O)c2ccccc2O[C@@H]1CC(=O)O | cell growth or viability, SRB | 96 h | > 50 µM |
| CCN(CC)CCN1C(=O)c2ccc3c4cccc5cccc(c6ccc(c2c36)C1=O)c54 | cell growth or viability, SRB | 72 h | 5.1 µM |

Repeated from above:
| SMILES | assay | conditions | IC50 |
| --- | --- | --- | --- |
| CN1CCC2(CC1)C/C(=N\NC(=O)Nc1ccc(Cl)cc1)c1ccccc1O2 | cell growth or viability, MTT | 48 h | 2.56 µM |
| Cc1cc(=O)oc2cc(OCC(=O)NCC(=O)NCC(=O)NN)ccc12 | cell growth or viability, MTT | – | 63.7 µM |
| C=CCc1ccc(OCc2nnc(SCC(=O)Nc3ccccc3C(=O)OC)o2)c(OC)c1 | cell growth or viability, MTT | 72 h | 7.07 µM |
| CC(=O)O[C@@H]1CC[C@@]2(C)[C@@H](CC[C@]3(C)[C@@H]2C(=O)C=C2[C@@H]4[C@@H](C)[C@H](C)CC[C@]4(C)CC[C@]23C)[C@@]1(C)C(=O)NCCNC(=O)CCCCBr | cell growth or viability, MTT | 48 h | 10.5 µM |
| CN1CCC2(CC1)C/C(=N\NC(=O)Nc1ccccc1)c1ccccc1O2 | cell growth or viability, MTT | 48 h | 12.3 µM |
